Measured values gathered from unrelated publications.
Each line is one published result; not all experiments were run side by side. Numbers after ± are the reported error.
BCHE: Cholinesterase (BCHE, Equus caballus, UniProt P81908)
Chain of UniProt P81908 (whole entry, looked up): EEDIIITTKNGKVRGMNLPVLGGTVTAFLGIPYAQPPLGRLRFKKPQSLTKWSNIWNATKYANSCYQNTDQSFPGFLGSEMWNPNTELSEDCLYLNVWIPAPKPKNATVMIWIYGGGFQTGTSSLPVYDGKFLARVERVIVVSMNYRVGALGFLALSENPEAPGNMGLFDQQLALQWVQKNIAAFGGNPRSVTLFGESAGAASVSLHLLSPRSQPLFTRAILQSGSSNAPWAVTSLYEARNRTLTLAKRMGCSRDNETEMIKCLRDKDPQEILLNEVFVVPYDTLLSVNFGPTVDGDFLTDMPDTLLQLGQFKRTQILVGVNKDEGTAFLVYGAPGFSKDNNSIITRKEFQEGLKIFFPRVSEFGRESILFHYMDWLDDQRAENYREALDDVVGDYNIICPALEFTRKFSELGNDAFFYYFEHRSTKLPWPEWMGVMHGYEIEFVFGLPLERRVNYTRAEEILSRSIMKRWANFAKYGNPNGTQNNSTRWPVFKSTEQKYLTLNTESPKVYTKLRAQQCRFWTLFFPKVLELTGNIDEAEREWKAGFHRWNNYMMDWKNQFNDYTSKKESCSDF
AKR1C3: Aldo-keto reductase family 1 member C3 (AKR1C3, Homo sapiens, UniProt P42330)
Chain of UniProt P42330 (whole entry, looked up): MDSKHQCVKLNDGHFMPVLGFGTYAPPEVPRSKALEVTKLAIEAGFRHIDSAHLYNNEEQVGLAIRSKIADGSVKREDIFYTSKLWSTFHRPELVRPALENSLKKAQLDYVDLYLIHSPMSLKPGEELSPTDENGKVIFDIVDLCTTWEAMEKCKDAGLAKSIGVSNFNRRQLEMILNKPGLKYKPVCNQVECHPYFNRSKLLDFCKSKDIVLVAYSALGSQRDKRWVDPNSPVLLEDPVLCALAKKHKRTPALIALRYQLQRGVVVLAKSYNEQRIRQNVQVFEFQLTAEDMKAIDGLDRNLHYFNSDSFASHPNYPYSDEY
CDK2: Cyclin-dependent kinase 2 (CDK2, Homo sapiens, UniProt P24941)
Chain of UniProt Q16827 (whole entry, looked up): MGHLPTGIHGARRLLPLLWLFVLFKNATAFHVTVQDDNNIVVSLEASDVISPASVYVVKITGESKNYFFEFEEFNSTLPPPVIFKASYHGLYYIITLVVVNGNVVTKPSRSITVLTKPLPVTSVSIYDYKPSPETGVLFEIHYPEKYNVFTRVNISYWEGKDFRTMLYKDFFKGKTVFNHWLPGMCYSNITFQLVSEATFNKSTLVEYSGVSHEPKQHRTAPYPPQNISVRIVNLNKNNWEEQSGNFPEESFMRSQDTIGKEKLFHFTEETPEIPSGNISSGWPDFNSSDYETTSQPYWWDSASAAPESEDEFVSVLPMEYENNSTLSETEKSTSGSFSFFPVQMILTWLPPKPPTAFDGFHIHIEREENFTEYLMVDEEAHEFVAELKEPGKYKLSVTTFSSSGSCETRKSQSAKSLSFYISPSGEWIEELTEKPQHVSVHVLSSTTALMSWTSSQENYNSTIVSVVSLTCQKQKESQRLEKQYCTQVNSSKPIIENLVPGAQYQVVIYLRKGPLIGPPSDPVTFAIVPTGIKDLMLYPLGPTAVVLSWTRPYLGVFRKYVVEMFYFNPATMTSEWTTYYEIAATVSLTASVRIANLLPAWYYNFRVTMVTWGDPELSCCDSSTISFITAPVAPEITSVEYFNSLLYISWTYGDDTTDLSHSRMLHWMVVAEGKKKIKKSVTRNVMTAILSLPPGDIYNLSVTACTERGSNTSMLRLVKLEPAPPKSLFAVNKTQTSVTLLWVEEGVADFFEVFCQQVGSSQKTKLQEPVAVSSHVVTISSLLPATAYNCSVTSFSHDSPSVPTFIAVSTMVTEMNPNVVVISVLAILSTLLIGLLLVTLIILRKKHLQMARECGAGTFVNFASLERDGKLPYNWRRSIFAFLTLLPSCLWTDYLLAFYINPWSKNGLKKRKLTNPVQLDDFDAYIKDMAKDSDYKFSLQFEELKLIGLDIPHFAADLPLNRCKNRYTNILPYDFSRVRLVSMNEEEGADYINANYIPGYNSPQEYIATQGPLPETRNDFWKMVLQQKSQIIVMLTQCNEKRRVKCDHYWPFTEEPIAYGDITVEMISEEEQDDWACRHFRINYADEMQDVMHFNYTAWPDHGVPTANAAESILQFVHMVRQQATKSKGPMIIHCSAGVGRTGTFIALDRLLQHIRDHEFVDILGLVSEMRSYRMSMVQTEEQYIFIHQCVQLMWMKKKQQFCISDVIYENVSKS
Chain of UniProt P12822 (whole entry, looked up): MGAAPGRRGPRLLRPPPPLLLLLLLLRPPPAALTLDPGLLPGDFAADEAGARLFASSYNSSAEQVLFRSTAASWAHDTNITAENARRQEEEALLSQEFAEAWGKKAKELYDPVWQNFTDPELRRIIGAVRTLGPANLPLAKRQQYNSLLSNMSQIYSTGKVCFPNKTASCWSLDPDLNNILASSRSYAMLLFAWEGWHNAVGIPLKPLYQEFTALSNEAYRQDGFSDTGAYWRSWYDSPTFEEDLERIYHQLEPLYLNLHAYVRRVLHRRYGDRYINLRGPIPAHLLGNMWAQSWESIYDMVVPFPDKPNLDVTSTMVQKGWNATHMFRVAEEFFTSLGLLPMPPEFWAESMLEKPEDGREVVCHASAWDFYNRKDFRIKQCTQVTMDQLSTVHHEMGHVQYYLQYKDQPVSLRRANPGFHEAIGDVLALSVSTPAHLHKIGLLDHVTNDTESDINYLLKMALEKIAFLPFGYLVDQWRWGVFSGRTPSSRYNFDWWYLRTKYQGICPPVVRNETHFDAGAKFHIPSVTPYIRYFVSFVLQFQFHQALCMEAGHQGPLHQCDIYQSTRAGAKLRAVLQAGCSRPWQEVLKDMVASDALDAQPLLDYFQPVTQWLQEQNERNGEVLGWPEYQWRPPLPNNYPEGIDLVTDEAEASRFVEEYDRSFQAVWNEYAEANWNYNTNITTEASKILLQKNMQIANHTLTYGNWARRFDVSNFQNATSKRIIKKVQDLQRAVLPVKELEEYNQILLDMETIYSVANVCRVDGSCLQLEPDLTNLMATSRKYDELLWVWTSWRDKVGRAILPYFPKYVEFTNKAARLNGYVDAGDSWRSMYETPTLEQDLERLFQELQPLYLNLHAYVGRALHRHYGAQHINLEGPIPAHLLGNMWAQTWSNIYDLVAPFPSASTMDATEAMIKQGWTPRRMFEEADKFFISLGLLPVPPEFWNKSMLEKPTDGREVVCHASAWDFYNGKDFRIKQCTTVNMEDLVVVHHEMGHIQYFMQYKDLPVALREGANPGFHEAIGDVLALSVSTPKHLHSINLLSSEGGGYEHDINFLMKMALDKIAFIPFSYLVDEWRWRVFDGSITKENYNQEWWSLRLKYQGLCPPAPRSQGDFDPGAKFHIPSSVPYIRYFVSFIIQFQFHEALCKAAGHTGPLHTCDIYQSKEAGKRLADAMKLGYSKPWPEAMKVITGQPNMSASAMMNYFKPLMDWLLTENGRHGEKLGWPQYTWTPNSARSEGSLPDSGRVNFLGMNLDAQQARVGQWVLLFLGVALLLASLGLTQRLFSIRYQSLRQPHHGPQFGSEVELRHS
Chain of UniProt P20813 (whole entry, looked up): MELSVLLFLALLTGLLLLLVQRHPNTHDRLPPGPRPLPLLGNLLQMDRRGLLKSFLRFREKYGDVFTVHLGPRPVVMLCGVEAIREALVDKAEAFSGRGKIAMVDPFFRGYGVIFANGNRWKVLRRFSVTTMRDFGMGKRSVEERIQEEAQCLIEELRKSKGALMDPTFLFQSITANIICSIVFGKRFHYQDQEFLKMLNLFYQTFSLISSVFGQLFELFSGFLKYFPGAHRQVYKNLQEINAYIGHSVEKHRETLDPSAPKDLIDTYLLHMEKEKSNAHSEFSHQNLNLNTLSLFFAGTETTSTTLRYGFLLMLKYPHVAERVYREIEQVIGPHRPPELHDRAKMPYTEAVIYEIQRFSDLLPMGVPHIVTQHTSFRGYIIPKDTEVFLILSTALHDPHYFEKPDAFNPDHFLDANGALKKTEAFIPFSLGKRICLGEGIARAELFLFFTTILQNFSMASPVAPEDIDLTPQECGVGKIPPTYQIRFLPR
Chain of UniProt P39900 (whole entry, looked up): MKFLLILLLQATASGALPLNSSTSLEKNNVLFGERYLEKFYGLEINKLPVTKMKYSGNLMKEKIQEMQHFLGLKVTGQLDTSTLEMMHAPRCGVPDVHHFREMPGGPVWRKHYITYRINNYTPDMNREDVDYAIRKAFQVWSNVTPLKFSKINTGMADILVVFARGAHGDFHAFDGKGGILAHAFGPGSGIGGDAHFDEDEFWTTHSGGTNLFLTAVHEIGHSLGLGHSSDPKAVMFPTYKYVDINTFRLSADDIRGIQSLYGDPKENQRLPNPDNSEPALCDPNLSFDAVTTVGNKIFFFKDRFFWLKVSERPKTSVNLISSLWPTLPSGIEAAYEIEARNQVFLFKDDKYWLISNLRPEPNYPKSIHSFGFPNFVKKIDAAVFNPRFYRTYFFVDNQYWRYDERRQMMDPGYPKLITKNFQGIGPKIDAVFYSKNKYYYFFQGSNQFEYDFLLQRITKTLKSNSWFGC
Chain of UniProt Q96RI1 (whole entry, looked up): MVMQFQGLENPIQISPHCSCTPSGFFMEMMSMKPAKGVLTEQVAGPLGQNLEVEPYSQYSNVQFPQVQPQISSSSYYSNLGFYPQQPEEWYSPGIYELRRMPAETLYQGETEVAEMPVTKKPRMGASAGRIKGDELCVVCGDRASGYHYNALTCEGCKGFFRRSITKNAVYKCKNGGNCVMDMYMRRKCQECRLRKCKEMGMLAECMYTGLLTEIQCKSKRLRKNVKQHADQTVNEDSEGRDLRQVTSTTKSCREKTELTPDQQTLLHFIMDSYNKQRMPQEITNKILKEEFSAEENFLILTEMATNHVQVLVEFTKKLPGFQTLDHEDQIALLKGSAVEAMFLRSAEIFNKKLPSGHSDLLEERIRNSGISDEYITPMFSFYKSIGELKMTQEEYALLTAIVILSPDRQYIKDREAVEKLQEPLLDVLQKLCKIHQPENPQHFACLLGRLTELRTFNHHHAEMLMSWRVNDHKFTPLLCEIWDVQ

SMILES	tested on	test	system	conditions	quantity	result
CCCC[C@H](NC(=O)CCCCCCCNC(=O)c1ccc(NN)nc1)C(=O)N[C@H]1CC(=O)NCCCC[C@@H](C(N)=O)NC(=O)[C@H](Cc2c[nH]c3ccccc23)NC(=O)[C@H](CCCNC(=N)N)NC(=O)[C@@H](Cc2ccccc2)NC(=O)[C@H](Cc2c[nH]cn2)NC1=O [technetium-99m labelled]	–	–	C57 mice, B16/F1 melanoma, urine	concentration not given, 2 h, added: 12 mg L-lysine	biodistribution	88.1 ± 1.9 %ID
COC(=O)C1=CO[C@@H](O)[C@@H]2C(Cn3cc(-c4ccc(OC)cc4)nn3)=CC[C@H]12	BCHE	inhibitor	horse serum BuChE	10000 µM	inhibition	98.69 ± 0.24%
C[C@]12CC[C@@H]3c4cc(Cl)c(O)c(Cl)c4CC[C@H]3[C@@H]1CCC2=O	AKR1C3	enzyme activity, inhibitor, absorbance	–	100 µM, pH 9	inhibition	90.4%
C=Cc1cc(OC)c2c(c1)c(=O)oc1c2cc(OC)c2c(O)ccc([C@@H]3O[C@H](C)[C@H](O)[C@@](C)(O)[C@H]3O)c21	Bifunctional protein GlmU (Staphylococcus aureus, UniProt Q5HIH6)	acetyltransferase activity, inhibitor, DTNB colorimetric	–	12.5 µM	inhibition	62%
C[C@]12CCC[C@H]1[C@@H]1CCc3c(cc(Br)c(O)c3Br)[C@H]1CC2	AKR1C3	enzyme activity, inhibitor, absorbance	–	10 µM, pH 9	inhibition	50%
CC(C)[C@H](NC(=O)[C@H](CCCNC(=N)N)NC(=O)[C@@H](N)Cc1ccccc1)C(=O)N[C@@H](Cc1c[nH]c2ccccc12)C(=O)O	ACE (Oryctolagus cuniculus, UniProt P12822)	inhibitor	rabbit	concentration not given, before incubation with ACE	inhibition	90.21 ± 0.31%
N=C(N)NCCC[C@@H]1NC(=O)[C@H](CCCCNC(=O)CNC(=O)CNC(=O)CNC(=O)CC[C@H](NC(=O)CCOCCOCCOCCOCCNC(=O)CC[C@H](NC(=O)CN2CCN(CC(=O)O)CCN(CC(=O)O)CCN(CC(=O)O)CC2)C(=O)NCCOCCOCCOCCOCCC(=O)N[C@@H](CCC(=O)NCC(=O)NCC(=O)NCC(=O)NCCCC[C@@H]2NC(=O)[C@@H](Cc3ccccc3)NC(=O)[C@H](CC(=O)O)NC(=O)CNC(=O)[C@H](CCCNC(=N)N)NC2=O)C(=O)NCC(=O)NCC(=O)NCC(=O)NCCCC[C@@H]2NC(=O)[C@@H](Cc3ccccc3)NC(=O)[C@H](CC(=O)O)NC(=O)CNC(=O)[C@H](CCCNC(=N)N)NC2=O)C(=O)NCC(=O)NCC(=O)NCC(=O)NCCCC[C@@H]2NC(=O)[C@@H](Cc3ccccc3)NC(=O)[C@H](CC(=O)O)NC(=O)CNC(=O)[C@H](CCCNC(=N)N)NC2=O)NC(=O)[C@@H](Cc2ccccc2)NC(=O)[C@H](CC(=O)O)NC(=O)CNC1=O [indium-111 labelled]	–	–	female athymic nude mice, lungs	intravenous, 3 µCi, 72 h, U-87 MG glioma xenograft	tissue uptake	0.3 ± 0.03 %ID/g
O=C(CN1CCN(c2cc3c(cc2F)c(=O)c(C(=O)O)cn3C2CC2)CC1)Nc1ccc(Cl)cc1	DNA topoisomerase 1 (TOP1, Homo sapiens, UniProt P11387)	enzyme activity, inhibitor	–	100 µM	inhibition	24.5%
C[C@@](O)(C(F)F)[C@H](NC(=O)c1ccc(C#CC#CC2CC2)cc1)C(=O)NO	MMP12 (Homo sapiens, UniProt P39900)	enzyme activity, inhibitor	–	30 µM	inhibition	≤ 30%
COc1ccnc(Nc2c3c(nc4ccccc24)CCC(C)C3)c1 (stereo not drawn)	BCHE	enzyme activity, inhibitor	–	100 µM	inhibition	-61.4%
NCC(CCC(N)C(=O)O)CC1OC(n2cnc3c(N)ncnc32)C(O)C1O (stereo not drawn)	DNMT3A (Homo sapiens, UniProt Q9Y6K1)	enzyme activity, inhibitor	–	20 µM	inhibition	> 50%
CC1(C)SC(C(CCc2ccccc2)B(O)O)N[C@H]1C(=O)O (stereo partly drawn)	Beta-lactamase TEM (bla, Escherichia coli, UniProt P62593, Q37K)	enzyme activity, inhibitor	–	concentration not given, 24 h	inhibition	no inhibition
O=C(O)CCC(NP(=O)(O)OCCC[C@@H](NC(=O)CCC(NC(=O)CCCCCNC(=O)CCCCCNC(=O)c1ccc([18F])cc1)C(=O)O)C(=O)O)C(=O)O (stereo partly drawn)	CWR22Rv1 tumour model	–	host not given, kidney	intravenous, 1 h, tumour-bearing	tracer uptake	5.87 %ID/g
COc1ccc2cc(Nc3c4c(nc5ccccc35)CCCC4)ccc2c1	BCHE	enzyme activity, inhibitor	–	50 µM	inhibition	46.3%
O=C(O)c1ccccc1-c1c2ccc(=O)c([As]3SCCS3)c-2oc2c([As]3SCCS3)c(O)ccc12	PTPN11 (Homo sapiens, UniProt Q06124, C333P)	phosphatase activity	–	concentration not given, full-length, C333P mutant, added: DiFMUP	inhibition	inhibited
Cc1ccnc(Nc2c3c(nc4cc(C)ccc24)CCCC3)c1	BCHE	enzyme activity, inhibitor	–	100 µM	inhibition	-26.6%
NCCCC[C@H](NC(=O)CNC(=O)CNC(=O)[C@H](CCCCN)NC(=O)CNC(=O)CNC(=O)CNC(=O)[C@H](CCCCN)NC(=O)CNC(=O)CNC(=O)[C@H](CCCCN)NC(=O)CNC(=O)CNC(=O)CNC(=O)[C@H](CCCCN)NC(=O)CNC(=O)CNC(=O)[C@H](CCCCN)NC(=O)CNC(=O)CNC(=O)CNC(=O)[C@H](CCCCN)NC(=O)CNC(=O)CNC(=O)[C@H](CCCCN)NC(=O)[C@H](CO)NC(=O)[C@H](Cc1ccc(O)cc1)NC(=O)CNC(=O)CNC(=O)CN)C(=O)NCC(=O)O	–	binding, SPR two-state model	rVλ6Wil fibrils	–	Kd	0.034 µM
Cc1ccnc(Nc2c3c(nc4ccccc24)CCC(C)C3)c1 (stereo not drawn)	BCHE	enzyme activity, inhibitor	–	50 µM	inhibition	< -200%
C=CCn1nnc2c(NCc3ccc(C)s3)nc(N[C@H](CC)CO)nc21	CDK2	enzyme activity	–	2 µM	inhibition	0 to 15%
CC(=O)NC(Cc1ccc(Br)c(Cl)c1)C(=O)N[C@@H](C)C(=O)N1CCC[C@H]1C(=O)N1CCC[C@H]1C(=O)N[C@@H](CCC(=O)O)C(=O)N[C@@H](Cc1c[nH]cn1)C(=O)N[C@@H](CO)C(=O)N[C@H](C(=O)N[C@@H](C)C(N)=O)[C@@H](C)OP(=O)(O)O (stereo partly drawn)	ABL1 (Homo sapiens, UniProt P00519)	enzyme activity, inhibitor	–	10 µM	inhibition	0.39%

SMILES	tested on	test	system	conditions	quantity	result
COC(=O)C1=CO[C@@H](OC(C)=O)[C@@H]2C(Cn3cc(COCc4ccccc4)nn3)=CC[C@H]12	BCHE	inhibitor	horse serum BuChE	10000 µM	inhibition	39.26 ± 0.18%
CSCC[C@H](NC(=O)[C@H](CC(C)C)NC(=O)[C@H](Cc1c[nH]cn1)NC(=O)CNC(=O)[C@@H](NC(=O)[C@H](C)NC(=O)[C@H](Cc1c[nH]c2ccccc12)NC(=O)[C@H](CCC(N)=O)NC(=O)CCCCCNC(=O)CNC(=O)CNC(=O)CNC(=O)CSC(C)=O)C(C)C)C(N)=O [technetium-99m labelled]	–	–	Swiss mouse, pancreas	intravenous, 18.5 MBq, 5 min	tissue uptake	6.58 ± 1.67 %ID/g
C[C@]12CC[C@@H]3c4ccc(O)c(Cl)c4CC[C@H]3[C@@H]1CCC2=O	AKR1C3	enzyme activity, inhibitor, absorbance	–	100 µM, pH 9	inhibition	91.7%
Fc1ccc(Nc2c3c(nc4ccccc24)CCCC3)cc1	BCHE	enzyme activity, inhibitor	–	100 µM	inhibition	-108%
CCCC[C@H](NC(=O)CNC(=O)CNC(=O)c1ccc(NN)nc1)C(=O)N[C@H]1CC(=O)NCCCC[C@@H](C(N)=O)NC(=O)[C@H](Cc2c[nH]c3ccccc23)NC(=O)[C@H](CCCNC(=N)N)NC(=O)[C@@H](Cc2ccccc2)NC(=O)[C@H](Cc2c[nH]cn2)NC1=O [technetium-99m labelled]	–	–	C57 mice bearing B16/F1 melanoma	dose not given, 2 h post-injection	activity cleared from body	~91 % injected dose
COC(=O)C(=O)/C(=C\c1ccc(-c2ccccc2[N+](=O)[O-])o1)C(=O)c1ccccc1	Procathepsin L (CTSL, Homo sapiens, UniProt P07711)	enzyme activity, inhibitor	–	50 µM	inhibition	26.6%
CCCCCc1cc(O)c2c(c1)OC(C)(C)C1CCC(CO)=CC21 (stereo not drawn)	Cytochrome P450 2B6 (CYP2B6, Homo sapiens, UniProt P20813)	enzyme activity, inhibitor	human, liver microsomes	pH 7.4	IC50	8.2 µM
NC(=O)c1ccc(NC(=O)c2cccc(CC3CCCCC3)n2)c(Cc2ccccc2)c1	Capsid scaffolding protein, protease domain (Human herpesvirus 8 type P, UniProt Q2HRB6)	enzyme activity, inhibitor	–	concentration not given, pH 8	inhibition	inactive
Clc1ccc(Nc2c3c(nc4ccccc24)CCCC3)cc1	BCHE	enzyme activity, inhibitor	–	100 µM	inhibition	-54.3%
O=C(O)c1ccc([PH]([Au][Cl])(c2ccccc2)c2ccccc2)cc1	thioredoxin reductase	–	–	100 µM	inhibition	67.1%
CCN(Cc1ccccc1)C(=O)CCc1nc(CN2CCN(C(=O)Cc3ccc(OC)c(OC)c3)CC2)no1	SCN1A (Homo sapiens, UniProt P35498)	ion current, inhibitor, patch clamp	–	10 µM	inhibition	0.56%
CC(C)[C@H]1NC(=O)[C@H](CO)NC(=O)c2cc3cc(c2)C(=O)NC[C@H](NC(=O)[C@H](Cc2c[nH]cn2)NC(=O)[C@H](Cc2ccc(C(F)(F)P(=O)(O)O)cc2)NC(=O)[C@@H]2CCCN2C1=O)C(=O)N[C@@H](Cc1ccccc1)C(=O)N[C@@H](Cc1ccc2ccccc2c1)C(=O)N[C@@H](CCCNC(=N)N)C(=O)N[C@@H](CCCNC(=N)N)C(=O)N[C@@H](CCCNC(=N)N)C(=O)N[C@@H](CCCNC(=N)N)C(=O)N[C@H](C(=O)N[C@@H](CCCCN)C(N)=O)CNC3=O	Receptor-type tyrosine-protein phosphatase O (Homo sapiens, UniProt Q16827)	enzyme activity, inhibitor, absorbance	–	1 µM	inhibition	≤ 10%
c1ccc2ncc(Nc3c4c(nc5ccccc35)CCCC4)cc2c1	BCHE	enzyme activity, inhibitor	–	100 µM	inhibition	-44.5%
N=C(N)NCCC[C@@H]1NC(=O)[C@H](CCCCNC(=O)CC[C@H](NC(=O)CCOCCOCCOCCOCCNC(=O)CC[C@H](NC(=O)CN2CCN(CC(=O)O)CCN(CC(=O)O)CCN(CC(=O)O)CC2)C(=O)NCCOCCOCCOCCOCCC(=O)N[C@@H](CCC(=O)NCCCC[C@@H]2NC(=O)[C@@H](Cc3ccccc3)NC(=O)[C@H](CC(=O)O)NC(=O)CNC(=O)[C@H](CCCNC(=N)N)NC2=O)C(=O)NCCCC[C@@H]2NC(=O)[C@@H](Cc3ccccc3)NC(=O)[C@H](CC(=O)O)NC(=O)CNC(=O)[C@H](CCCNC(=N)N)NC2=O)C(=O)NCCCC[C@@H]2NC(=O)[C@@H](Cc3ccccc3)NC(=O)[C@H](CC(=O)O)NC(=O)CNC(=O)[C@H](CCCNC(=N)N)NC2=O)NC(=O)[C@@H](Cc2ccccc2)NC(=O)[C@H](CC(=O)O)NC(=O)CNC1=O [indium-111 labelled]	–	–	athymic nude mice, female, U-87 MG glioma xenograft, bone	intravenous, 3 µCi, 4 h	tissue uptake	1.46 ± 0.69 %ID/g
CCCCCCCCCCOCc1cn(CC2=CC[C@@H]3C(C(=O)OC)=CO[C@@H](O)[C@H]23)nn1	BCHE	inhibitor	horse serum BuChE	10000 µM	inhibition	25.04 ± 0.23%
CN(C)CC1CCCCC1(O)c1cccc(O)c1 (stereo not drawn)	–	–	Caco-2	10 µM, 3 h, pH 7.4	Papp A→B	12.9 ×10⁻⁶ cm/s
CSCCNC(=O)CCC(C)C1CCC2C3C(O)CC4CC(O)CCC4(C)C3CCC12C (stereo not drawn)	Bile acid receptor (NR1H4, Homo sapiens, UniProt Q96RI1)	receptor activation, antagonist	–	concentration not given, added: obeticholic acid 25 µM	inhibition	inhibited
COc1ccnc(Nc2c3c(nc4cc(C)ccc24)CCCC3)c1	BCHE	enzyme activity, inhibitor	–	50 µM	inhibition	< -200%
CC[C@H](CO)Nc1nc(NCc2ccc(C)s2)n2ncc(C(C)C)c2n1	CDK2	enzyme activity	–	2 µM	inhibition	75%

A few entries again:
SMILES	tested on	test	system	conditions	quantity	result
C[C@@](O)(C(F)F)[C@H](NC(=O)c1ccc(C#CC#CC2CC2)cc1)C(=O)NO	MMP12 (Homo sapiens, UniProt P39900)	enzyme activity, inhibitor	–	30 µM	inhibition	≤ 30%
COc1ccc2cc(Nc3c4c(nc5ccccc35)CCCC4)ccc2c1	BCHE	enzyme activity, inhibitor	–	50 µM	inhibition	46.3%
N=C(N)NCCC[C@@H]1NC(=O)[C@H](CCCCNC(=O)CC[C@H](NC(=O)CCOCCOCCOCCOCCNC(=O)CC[C@H](NC(=O)CN2CCN(CC(=O)O)CCN(CC(=O)O)CCN(CC(=O)O)CC2)C(=O)NCCOCCOCCOCCOCCC(=O)N[C@@H](CCC(=O)NCCCC[C@@H]2NC(=O)[C@@H](Cc3ccccc3)NC(=O)[C@H](CC(=O)O)NC(=O)CNC(=O)[C@H](CCCNC(=N)N)NC2=O)C(=O)NCCCC[C@@H]2NC(=O)[C@@H](Cc3ccccc3)NC(=O)[C@H](CC(=O)O)NC(=O)CNC(=O)[C@H](CCCNC(=N)N)NC2=O)C(=O)NCCCC[C@@H]2NC(=O)[C@@H](Cc3ccccc3)NC(=O)[C@H](CC(=O)O)NC(=O)CNC(=O)[C@H](CCCNC(=N)N)NC2=O)NC(=O)[C@@H](Cc2ccccc2)NC(=O)[C@H](CC(=O)O)NC(=O)CNC1=O [indium-111 labelled]	–	–	athymic nude mice, female, U-87 MG glioma xenograft, bone	intravenous, 3 µCi, 4 h	tissue uptake	1.46 ± 0.69 %ID/g
O=C(O)c1ccc([PH]([Au][Cl])(c2ccccc2)c2ccccc2)cc1	thioredoxin reductase	–	–	100 µM	inhibition	67.1%
CCCC[C@H](NC(=O)CCCCCCCNC(=O)c1ccc(NN)nc1)C(=O)N[C@H]1CC(=O)NCCCC[C@@H](C(N)=O)NC(=O)[C@H](Cc2c[nH]c3ccccc23)NC(=O)[C@H](CCCNC(=N)N)NC(=O)[C@@H](Cc2ccccc2)NC(=O)[C@H](Cc2c[nH]cn2)NC1=O [technetium-99m labelled]	–	–	C57 mice, B16/F1 melanoma, urine	concentration not given, 2 h, added: 12 mg L-lysine	biodistribution	88.1 ± 1.9 %ID
